Measured values gathered from unrelated publications.
Compare with care: the assays were run in different laboratories.
Target: Microtubule-associated serine/threonine-protein kinase 1 (MAST1, Homo sapiens, UniProt Q9Y2H9)

Compound	assay	setting	how to read	remaining binding
CNC1C[S+]2CC[S+]3CC[S+](C1)[Ru-4]321([N]=C=S)[n]2c3ccc(OC)cc3c3c4c(c5cc(F)c[n+]1c5c32)C(=O)NC4=O (centres unmarked)	KinomeScan	0.1 µM	baseline: untreated	77%
CNC(=O)C1CCN(c2cc(C)c(F)cc2NC(=O)c2ccc(-c3cc(O)ccc3C)c(C)c2)CC1	binding, competition with immobilised ligand	1 µM	–	95%
CC(C)=CC1OC(C)(C)C2C=C3C(=O)C(Cl)=CC(O)C3C3C(O)C4OC4C(=O)C132 (centres unmarked)	cell-free assay, competition with immobilised ligand	10 µM	–	85%
Cc1ccc(-c2c(/C=C(\C#N)C(=O)NC(C)C)n(CCCO)c3ncnc(N)c23)cc1	cell-free assay, competition with immobilised ligand	1 µM	–	87%
C=CC(=O)N1CCCC(n2c(=O)c3ncccc3n(Cc3ccc(Oc4ccccc4)cc3)c2=O)C1 (centres unmarked)	cell-free assay, competition with immobilised ligand	1 µM	–	94%
Cc1cnc2nc1Nc1cccc(c1)COC/C=C/COCc1cc(ccc1OCCN1CCOCC1)N2	binding	0.1 µM	–	98%
COc1c(Cl)cccc1Nc1c(-c2ccncc2C#C[C@@]2(C)CCCN2C(=O)/C=C/CN(C)C)[nH]c2c1C(=O)NCC2	binding, competition with immobilised ligand	3 µM	–	29%
C=CC(=O)N1CCc2ccc(-n3c(=O)ccc4cnc5ccc(-c6cnn(C)c6)cc5c43)cc21	KINOMEscan	1 µM	baseline: DMSO control	100%
Nc1ncc2c(n1)-c1c([nH]c3ccc(C4=CCOCC4)cc13)CCC2	binding, competition with immobilised ligand	1 µM	–	100%
CCN1CCN(Cc2ccc(C(=O)Nc3ccc(C)c(NCc4cnc5[nH]ccc5c4OC)c3)cc2C(F)(F)F)CC1	binding, competition with immobilised ligand	1 µM	–	34%
COc1cc(Nc2nccc(-c3cnn4nc(OC)ccc34)n2)cc(C(F)(F)F)c1	binding, competition with immobilised ligand	1 µM	–	93%

Some of these lines once more:
Compound	assay	setting	how to read	remaining binding
CC(C)=CC1OC(C)(C)C2C=C3C(=O)C(Cl)=CC(O)C3C3C(O)C4OC4C(=O)C132 (centres unmarked)	cell-free assay, competition with immobilised ligand	10 µM	–	85%
Cc1ccc(-c2c(/C=C(\C#N)C(=O)NC(C)C)n(CCCO)c3ncnc(N)c23)cc1	cell-free assay, competition with immobilised ligand	1 µM	–	87%
